Experimental data gathered from unrelated publications.
Protocols differ between the studies behind these lines. ± marks the error that the study gave.
APP: Amyloid-beta precursor protein (APP, Homo sapiens, UniProt P05067)
lasR: Transcriptional activator protein LasR (lasR, Pseudomonas aeruginosa, UniProt P25084)
Sequence of UniProt P17301 (whole entry, looked up): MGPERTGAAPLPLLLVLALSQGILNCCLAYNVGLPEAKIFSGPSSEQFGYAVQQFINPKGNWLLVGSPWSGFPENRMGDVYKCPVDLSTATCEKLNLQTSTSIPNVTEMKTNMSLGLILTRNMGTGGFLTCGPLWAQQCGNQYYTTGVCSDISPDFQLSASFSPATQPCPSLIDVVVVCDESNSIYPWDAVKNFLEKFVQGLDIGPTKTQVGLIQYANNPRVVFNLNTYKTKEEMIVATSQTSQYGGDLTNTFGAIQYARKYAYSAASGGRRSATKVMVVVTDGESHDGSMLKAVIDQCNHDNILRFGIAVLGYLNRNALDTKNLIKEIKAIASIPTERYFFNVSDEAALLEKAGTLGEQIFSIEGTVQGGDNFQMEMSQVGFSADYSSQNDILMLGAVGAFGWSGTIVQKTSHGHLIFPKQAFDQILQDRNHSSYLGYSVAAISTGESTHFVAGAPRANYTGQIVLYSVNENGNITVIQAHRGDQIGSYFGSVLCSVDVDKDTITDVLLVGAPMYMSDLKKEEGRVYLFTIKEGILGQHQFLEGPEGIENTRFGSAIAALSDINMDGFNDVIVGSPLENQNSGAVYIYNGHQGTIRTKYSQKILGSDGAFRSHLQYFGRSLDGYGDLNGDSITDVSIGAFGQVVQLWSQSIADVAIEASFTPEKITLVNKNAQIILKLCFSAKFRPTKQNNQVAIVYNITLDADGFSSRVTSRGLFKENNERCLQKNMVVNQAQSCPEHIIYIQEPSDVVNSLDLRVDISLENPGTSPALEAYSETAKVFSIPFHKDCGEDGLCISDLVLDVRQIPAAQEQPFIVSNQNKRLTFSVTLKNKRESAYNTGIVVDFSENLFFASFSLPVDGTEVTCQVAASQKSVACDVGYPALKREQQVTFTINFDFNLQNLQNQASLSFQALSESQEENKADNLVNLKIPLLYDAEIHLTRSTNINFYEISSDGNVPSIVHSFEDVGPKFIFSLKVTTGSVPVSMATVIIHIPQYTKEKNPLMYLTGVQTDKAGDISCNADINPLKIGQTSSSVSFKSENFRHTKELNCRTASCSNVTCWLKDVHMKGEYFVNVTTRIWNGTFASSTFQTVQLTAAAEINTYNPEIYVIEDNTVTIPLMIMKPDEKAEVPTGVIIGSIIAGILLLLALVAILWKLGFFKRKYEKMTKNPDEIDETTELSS
Sequence of UniProt Q9Y243 (whole entry, looked up): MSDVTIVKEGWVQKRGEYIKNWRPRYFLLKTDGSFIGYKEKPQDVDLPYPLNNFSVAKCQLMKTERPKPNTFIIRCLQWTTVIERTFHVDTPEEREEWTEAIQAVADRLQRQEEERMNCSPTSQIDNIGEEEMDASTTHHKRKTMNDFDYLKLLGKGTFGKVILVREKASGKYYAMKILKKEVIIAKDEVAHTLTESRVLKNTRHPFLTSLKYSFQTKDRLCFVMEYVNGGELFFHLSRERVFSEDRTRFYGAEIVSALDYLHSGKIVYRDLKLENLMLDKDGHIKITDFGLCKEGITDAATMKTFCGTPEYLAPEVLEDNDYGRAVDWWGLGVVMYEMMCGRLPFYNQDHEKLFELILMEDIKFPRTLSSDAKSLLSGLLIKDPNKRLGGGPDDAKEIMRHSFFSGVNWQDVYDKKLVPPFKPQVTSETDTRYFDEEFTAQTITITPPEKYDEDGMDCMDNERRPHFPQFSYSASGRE
Sequence of UniProt Q96GD4 (whole entry, looked up): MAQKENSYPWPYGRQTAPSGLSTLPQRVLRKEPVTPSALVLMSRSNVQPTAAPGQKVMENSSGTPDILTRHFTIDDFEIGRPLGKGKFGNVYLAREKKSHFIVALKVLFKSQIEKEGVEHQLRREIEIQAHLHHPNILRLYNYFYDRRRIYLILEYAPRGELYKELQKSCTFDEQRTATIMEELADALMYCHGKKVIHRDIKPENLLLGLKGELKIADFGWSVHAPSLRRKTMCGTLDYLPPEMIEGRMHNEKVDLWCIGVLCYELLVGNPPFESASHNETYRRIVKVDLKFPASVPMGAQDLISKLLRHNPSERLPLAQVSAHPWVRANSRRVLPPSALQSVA
Sequence of UniProt Q16539 (whole entry, looked up): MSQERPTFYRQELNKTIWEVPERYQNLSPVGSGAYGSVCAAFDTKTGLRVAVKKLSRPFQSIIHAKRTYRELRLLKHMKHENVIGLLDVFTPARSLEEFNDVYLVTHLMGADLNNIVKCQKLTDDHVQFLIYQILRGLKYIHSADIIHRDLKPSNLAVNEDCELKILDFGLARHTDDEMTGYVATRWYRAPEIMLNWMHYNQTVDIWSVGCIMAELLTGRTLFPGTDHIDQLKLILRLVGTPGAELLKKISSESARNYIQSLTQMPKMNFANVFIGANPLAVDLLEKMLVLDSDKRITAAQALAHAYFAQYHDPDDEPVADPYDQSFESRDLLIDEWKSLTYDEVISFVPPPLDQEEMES

CC(=O)N[C@@H](CC(C)C)C(=O)N[C@@H](C)C(=O)N[C@@H](C)C(=O)NN(CCC(=O)N(C)C)Sc1ccccc1[N+](=O)[O-]  inhibition (Genome polyprotein, 3C protease (Human hepatitis A virus genotype IB, UniProt P08617, C1543S); enzyme activity; concentration not given): no inhibition
CCCCc1nc2ccc(/N=N/c3ccc(Cl)cc3)cc2c(-c2ccccc2)c1I  inhibition (APP; amyloid aggregation, inhibitor, fluorescence; 25 µM): 60.9%
[Cl][Au-][P+](c1ccccc1)(c1ccccc1)c1cc[cH-]c1.[Cl][Au-][P+](c1ccccc1)(c1ccccc1)c1cc[cH-]c1.[Cl][Ti+2][Cl]  inhibition (AKT3 (Homo sapiens, UniProt Q9Y243); kinase activity; 10 µM): ≥ 50%
CN[C@](C)(C[18F])C(=O)O  tracer uptake (DU-145 tumour model; host not given, bone; 2 h, tumour-bearing): 1.6 %ID/g
CSCC[C@H](NC(=O)[C@H](CC(C)C)NC(=O)[C@H](Cc1c[nH]cn1)NC(=O)CNC(=O)[C@@H](NC(=O)[C@H](C)NC(=O)[C@H](Cc1c[nH]c2ccccc12)NC(=O)[C@H](CCC(N)=O)NC(=O)CCCCCNC(=O)CNC(=O)CNC(=O)CNC(=O)CSC(C)=O)C(C)C)C(N)=O [technetium-99m labelled]  tissue uptake (Swiss mouse, blood; intravenous, 18.5 MBq, 5 min): 1.64 ± 0.22 %ID/g
O=C(Cn1cc(C2CC2)nn1)N[C@H]1CCOC1=O  inhibition (lasR; reporter gene, antagonist; 100 µM, with: OdDHL 10 nM): 52%
N=C(N)NCCC[C@@H]1NC(=O)[C@H](CCCCNC(=O)CCOCCOCCOCCOCCNC(=O)CC[C@H](NC(=O)CCOCCOCCOCCOCCNC(=O)CC[C@H](NC(=O)CN2CCN(CC(=O)O)CCN(CC(=O)O)CCN(CC(=O)O)CC2)C(=O)NCCOCCOCCOCCOCCC(=O)N[C@@H](CCC(=O)NCCOCCOCCOCCOCCC(=O)NCCCC[C@@H]2NC(=O)[C@@H](Cc3ccccc3)NC(=O)[C@H](CC(=O)O)NC(=O)CNC(=O)[C@H](CCCNC(=N)N)NC2=O)C(=O)NCCOCCOCCOCCOCCC(=O)NCCCC[C@@H]2NC(=O)[C@@H](Cc3ccccc3)NC(=O)[C@H](CC(=O)O)NC(=O)CNC(=O)[C@H](CCCNC(=N)N)NC2=O)C(=O)NCCOCCOCCOCCOCCC(=O)NCCCC[C@@H]2NC(=O)[C@@H](Cc3ccccc3)NC(=O)[C@H](CC(=O)O)NC(=O)CNC(=O)[C@H](CCCNC(=N)N)NC2=O)NC(=O)[C@@H](Cc2ccccc2)NC(=O)[C@H](CC(=O)O)NC(=O)CNC1=O [indium-111 labelled]  tissue uptake (female athymic nude mice, liver; intravenous, 3 µCi, 72 h, U-87 MG glioma xenograft): 1.23 ± 0.27 %ID/g
O=C(CC(=O)N[C@H]1CCOC1=O)Cc1ccccc1  inhibition (lasR; reporter gene, antagonist; 10 µM, with: 1 10 nM): 20%
N=C(N)NCCC[C@@H]1NC(=O)[C@H](CCCCNC(=O)CC[C@H](NC(=O)CCOCCOCCOCCOCCNC(=O)CC[C@H](NC(=O)CN2CCN(CC(=O)O)CCN(CC(=O)O)CCN(CC(=O)O)CC2)C(=O)NCCOCCOCCOCCOCCC(=O)N[C@@H](CCC(=O)NCCCC[C@@H]2NC(=O)[C@@H](Cc3ccccc3)NC(=O)[C@H](CC(=O)O)NC(=O)CNC(=O)[C@H](CCCNC(=N)N)NC2=O)C(=O)NCCCC[C@@H]2NC(=O)[C@@H](Cc3ccccc3)NC(=O)[C@H](CC(=O)O)NC(=O)CNC(=O)[C@H](CCCNC(=N)N)NC2=O)C(=O)NCCCC[C@@H]2NC(=O)[C@@H](Cc3ccccc3)NC(=O)[C@H](CC(=O)O)NC(=O)CNC(=O)[C@H](CCCNC(=N)N)NC2=O)NC(=O)[C@@H](Cc2ccccc2)NC(=O)[C@H](CC(=O)O)NC(=O)CNC1=O [indium-111 labelled]  tissue uptake (female athymic nude mice, intestine; intravenous, 3 µCi, 4 h, U-87 MG glioma xenograft): 7.98 ± 4.47 %ID/g
O=C(N[C@H]1CCOC1=O)c1ccc(-n2cc(C3CC3)nn2)cc1  inhibition (lasR; reporter gene, antagonist; 100 µM, with: OdDHL 10 nM): 54%
C[C@@H](O)[C@H](NC(=O)[C@H](CCCCN)NC(=O)COCCN)C(=O)N[C@@H](CCCNC(=N)N)C(=O)NC(C)(C)C(=O)N[C@@H](CCCNC(=N)N)C(=O)NC(C)(C)C(=O)N[C@H](C(=O)N[C@@H](CO)C(=O)N[C@@H](Cc1c[nH]cn1)C(=O)N[C@@H](Cc1ccc(O)cc1)C(=O)NCC(=O)O)[C@@H](C)O  inhibition (Integrin alpha-2, I domain (Homo sapiens, UniProt P17301); binding to collagen I; up to 1×100 nM; maximal): 30%
CCCCc1cc(-c2ccccc2)c2cc(/N=N/c3ccc([N+](=O)[O-])cc3)ccc2n1  inhibition (APP; amyloid aggregation, inhibitor, fluorescence; 25 µM): 69.9%
CC(=O)NC(Cc1ccc(Br)c(Cl)c1)C(=O)N[C@@H](C)C(=O)N1CCC[C@H]1C(=O)N1CCC[C@H]1C(=O)N[C@@H](CCC(=O)O)C(=O)N[C@@H](Cc1c[nH]cn1)C(=O)N[C@@H](CO)C(=O)N[C@H](C(=O)N[C@@H](C)C(N)=O)[C@@H](C)OP(=O)(O)O (stereo partly shown)  inhibition (MAPK14 (Homo sapiens, UniProt Q16539); enzyme activity, inhibitor; 10 µM): 2.17%
CN(C)C=Nc1c(C#N)cnn1-c1ccc(F)c(Cl)c1  inhibition (Aurora kinase B (AURKB, Homo sapiens, UniProt Q96GD4); kinase activity; concentration not given): no inhibition
CCCCCc1cn(CC(=O)N[C@H]2CCOC2=O)nn1  inhibition (lasR; reporter gene, antagonist; 100 µM, with: OdDHL 10 nM): 55%
Cc1nc(=O)c2cc(CN(C)c3cccc(C(=O)N[C@@]4(C(=O)O)CCC[C@@H](C(=O)O)C4)c3)ccc2[nH]1  Hill slope (4'-phosphopantetheinyl transferase PptT (Mycobacterium tuberculosis, UniProt O33336); enzyme activity, inhibitor, fluorescence polarization): 1

For quick reference, copied from above:
CN[C@](C)(C[18F])C(=O)O  tracer uptake (DU-145 tumour model; host not given, bone; 2 h, tumour-bearing): 1.6 %ID/g
